# Experimental data gathered from unrelated publications.
# Protocols differ between the studies behind these lines. “And” joins repeats or separate records; there may be more than shown. ± marks the error that the study gave.
# Sequence of UniProt P50613 (whole entry, looked up): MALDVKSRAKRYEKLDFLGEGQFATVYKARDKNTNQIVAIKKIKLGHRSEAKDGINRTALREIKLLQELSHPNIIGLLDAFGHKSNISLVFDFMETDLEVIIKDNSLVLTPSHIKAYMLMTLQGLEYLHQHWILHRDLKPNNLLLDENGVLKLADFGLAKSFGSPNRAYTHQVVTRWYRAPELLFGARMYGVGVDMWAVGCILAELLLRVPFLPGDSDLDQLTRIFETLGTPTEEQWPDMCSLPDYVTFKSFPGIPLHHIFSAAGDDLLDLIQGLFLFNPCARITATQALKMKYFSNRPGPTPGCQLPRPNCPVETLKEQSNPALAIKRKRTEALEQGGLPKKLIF
SMILES,target or system,assay,test system,setting,how to read,endpoint,result
COc1cc2c(cc1OCC1CC1)NC(=O)C21CCN(c2cc(NC3CC3)ncn2)CC1,Vero-E6,CellTiter-Glo ATP,,"72 h, retest 8-point duplicates","relative to: DMSO 0%, hyamine -100%, more negative, more toxic",maximum response,-10.1%
CCc1ccc(CC/C=C/c2ccc3c(c2)C(=O)CC3)cc1,,,"Sprague-Dawley rat, female, serum","oral, 30 mg/kg/day, 14 days",,sodium,141 mM
N=C(N)NCCNC(=O)C1(Nc2ccccc2)CCN(Cc2ccccc2)CC1,,,"rat, plasma","-20 °C, 2 cycles, 6 ng/mL",,freeze-thaw deviation,3.6%
COc1ccc([C@@H]2CC(=O)c3c(O)cc(O)cc3O2)cc1O,,,"male Sprague-Dawley rat, obese","oral, 100 mg/kg of neohesperidin, 24 to 36 h",,faecal excreted amount,8630 ± 5990 ng
COc1ccc2nc3cc(Cl)ccc3c(Nc3cc(CN4CCCC4)c(O)c(CN4CCCC4)c3)c2n1,,,"mouse, blood","intraperitoneal, 57 mg/kg",,haemoglobin,136 g/L
CC[C@H](C)[C@H](NC(=O)[C@H](Cc1ccccc1)NC(=O)[C@H](CCC(=O)O)NC(=O)[C@H](CCCNC(=N)N)NC(=O)[C@H](C)NC(=O)[C@H](C)NC(=O)[C@H](CCC(N)=O)NC(=O)[C@H](CCC(=O)O)NC(=O)[C@H](CCC(=O)O)NC(=O)[C@H](CC(C)C)NC(=O)[C@H](Cc1ccc(O)cc1)NC(=O)[C@H](CO)NC(=O)[C@H](CO)NC(=O)[C@@H](NC(=O)[C@H](CC(=O)O)NC(=O)[C@H](CO)NC(=O)[C@@H](NC(=O)[C@H](Cc1ccccc1)NC(=O)[C@@H](NC(=O)CNC(=O)[C@H](CCC(=O)O)NC(=O)[C@H](C)NC(=O)CCc1c[nH]cn1)[C@@H](C)O)[C@@H](C)O)C(C)C)C(=O)N[C@@H](C)C(=O)N[C@@H](Cc1c[nH]c2ccccc12)C(=O)N[C@@H](CC(C)C)C(=O)N[C@H](C(=O)N[C@@H](CCCNC(=N)N)C(=O)NCC(=O)N[C@@H](CCCNC(=N)N)C(=O)N[C@@H](CCCCNC(=O)COCCOCCNC(=O)COCCOCCNC(=O)CC[C@H](NC(=O)CCCCCCCCCCCCCCCCC(=O)O)C(=O)O)C(=O)NCC(=O)NCC(=O)N[C@@H](CO)C(=O)N[C@@H](CCCCNc1c(NCCCCCN(O)C(=O)CCC(=O)NCCCCCN(O)C(=O)CCC(=O)NCCCCCN(O)C(C)=O)c(=O)c1=O)C(=O)O)C(C)C [zirconium-89 labelled],,,"rat, duodenum content","intravenous, 3 nmol/kg, 72 h",,tissue uptake,0.03 %ID/g
C[C@H]1CN(c2n[nH]c3nc(N[C@H]4CC[C@H](NS(=O)(=O)CCC(F)(F)F)CC4)ncc23)CCO1,"Cyclin-dependent kinase 7 (CDK7, Homo sapiens, UniProt P50613)",Kinobeads competition,"HEK293, K562, placenta lysate","0.16 µM, unit not given",relative to: vehicle,remaining binding,0.94
O=S(=O)(Nc1ccccc1)c1ccc(NC(=S)Nc2ccccc2)cc1,,item: Ca,"female mouse, blood","oral, 80 mg/kg daily, 14 days",,blood chemistry level,9.9 mg/dL
COc1cc2c(Oc3ccc4[nH]c(C)cc4c3F)ccnc2cc1OCC1(N)CC1,,,paediatric recurrent refractory sarcoma,10 mg,,grade 3 Epistaxis,0%
COc1ncnn2ccc(-c3cnc4nc(C)n(Cc5nnc([C@@H](C)F)o5)c4c3)c12,,phase 1 trial,human patients,"oral, dose not given, CTCAE grade 3",,patients with decreased WBC count,7.1%
O=C(Nc1ccccc1)C1CCN(C(=O)Oc2cccnc2)CC1,,psychotropic effects VAS,healthy women,60 mg,"relative to: pre-dose baseline, direction not given",change in Meaning score,0.1
CN1CC[C@@H](c2c(O)cc(O)c3c(=O)cc(-c4ccc(C(F)(F)F)cc4Cl)oc23)[C@@H]1CO,,item: Anemia,B-cell malignancies or AML,"oral, 50 mg, continuous dosing",,patients with adverse event,25%
CC1(C)[C@H](C=C(Cl)Cl)[C@H]1C(=O)OCc1cccc(Oc2ccccc2)c1,,item: CYP2C19,"human, age 1 year, recombinant human CYP2C19",0.1 µM,,enzyme contribution to clearance,0.28%
NCCCC[C@@H]1NC(=O)[C@@H](Cc2c[nH]c3ccccc23)NC(=O)[C@H](c2ccccc2)NC(=O)[C@@H]2C[C@@H](OC(=O)NCCN)CN2C(=O)[C@H](Cc2ccccc2)NC(=O)[C@H](Cc2ccc(OCc3ccccc3)cc2)NC1=O,,,healthy human volunteers,1950 µg twice daily,,subjects with abdominal distension,7%
CCc1cc2c(cc1CC)CC(NC[C@H](O)c1ccc(O)c3[nH]c(=O)ccc13)C2,,,human,oral,,absorption rate constant,1 h⁻¹
C1=Cc2nc1cc1ccc([n-]1)c(-c1ccccc1)c1nc(cc3ccc([n-]3)c2-c2ccccc2)C=C1.CC(=O)[O-].[Mn+3],,LC-MS/MS,"Sprague-Dawley rat, plasma","oral gavage, dose not given, 240 min",,plasma concentration,192 ng/mL and 94 ng/mL
CO[C@H]1C[C@@H]2CC[C@@H](C)[C@@](O)(O2)C(=O)C(=O)N2CCCC[C@H]2C(=O)O[C@H]([C@H](C)C[C@@H]2CC[C@@H](OC(=O)NCCOCCOCCOCCOCCOCCOCCOCCOCCC(=O)N3CCc4cc(Cn5nc(-c6ccc7oc(N)nc7c6)c6c(N)ncnc65)ccc4C3)[C@H](OC)C2)C[C@@H](O)[C@H](C)/C=C(\C)[C@@H](O)[C@@H](OC)C(=O)[C@H](C)C[C@H](C)/C=C/C=C/C=C/1C,,,patients with advanced solid tumours,"intravenous, 10 mg weekly, grade 3 or higher",,AE leading to dose reduction,0%
Cn1nc(NS(C)(=O)=O)c2c(Cl)ccc(-n3c([C@H](Cc4cc(F)cc(F)c4)NC(=O)Cn4nc(C(F)F)c5c4C(F)(F)[C@@H]4C[C@H]54)nc4nc(OCCC(F)(F)F)ccc4c3=O)c21,,,human,dose not given,,participants with graded LDL-C increases,25%
COc1cc(Nc2ncc(F)c(Nc3ccc4c(n3)NC(=O)C(C)(C)O4)n2)cc(OC)c1OC,,,non-kinase assay buffer,"24 h, pH 7.5, 1% DMSO",,solubility,1.4 µM
CC(C)C[C@H](NC(=O)[C@H](CCCCN)NC(=O)OCC1c2ccccc2-c2ccccc21)C(=O)N[C@H](C(=O)N[C@@H](Cc1ccccc1)C(=O)N[C@@H](Cc1ccccc1)C(=O)N[C@@H](CCCCN)C(=O)NCC(=O)N[C@@H](Cc1ccccc1)C(=O)N[C@@H](C)C(=O)N[C@@H](Cc1c[nH]c2ccccc12)C(=O)N[C@@H](CC(N)=O)C(=O)N[C@H](C(=O)N[C@H]1CSSC[C@@H](C(=O)N[C@@H](Cc2c[nH]cn2)C(=O)N[C@@H](CCCNC(=N)N)C(=O)N[C@@H](CCCNC(=N)N)C(=O)N[C@@H](C)C(=O)N[C@@H](CC(N)=O)C(N)=O)NC(=O)[C@H](C(C)C)NC(=O)[C@H](CCCNC(=N)N)NC(=O)[C@H](C(C)C)NC(=O)CNC(=O)[C@H](CC(N)=O)NC(=O)[C@H](CCCNC(=N)N)NC(=O)[C@H](Cc2ccc(O)cc2)NC(=O)[C@H](C(C)C)NC1=O)C(C)C)C(C)C,,"circular dichroism, item: antiparallel β-sheet",PBS,"80 µM, pH 7.4, added: LTA 1 µM",,secondary structure content,43.6%
C[C@]1(CO)Cc2ncn(-c3ccc(C#N)c(Cl)c3)c2C(=O)O1,,,human,"oral, 10 mg, fasted, single dose, geometric mean",,t1/2,5.5 h
CC(=O)c1c(C)c2cnc(Nc3ccc(C4CCN(CCS(C)(=O)=O)CC4)cn3)nc2n(C2CCCC2)c1=O,,,"human, plasma","oral, 75 mg, day 1 single dose",,MRT,13.8 h
CCCCNC(=O)C1CCCN(Cc2nc(-c3ccc(Cl)cc3)oc2C)C1 (stereo not drawn),Vero-E6,CellTiter-Glo ATP,,"72 h, retest 8-point duplicates","relative to: DMSO 0%, hyamine -100%, more negative, more toxic",maximum response,-28.8%
CCN1[C@@H](C(=O)NC23CCC(C(=O)O)(CC2)CC3)[C@H](c2cccc(Cl)c2F)[C@]2(C(=O)Nc3cc(Cl)ccc32)C12CCCCC2,,,patients with advanced solid tumours,"oral, 150 mg",,grade ≥3 Lymphocytopenia incidence,50%
C[C@]12CC[C@@H]3c4ccc(O)cc4CC[C@H]3[C@@H]1CCC2=O,,ultrafiltration,cow milk whey,20 nM nominal in whole milk,,final permeate concentration,0.3 nM
O=c1nc(NO)ccn1[C@@H]1O[C@H](CO)[C@@H](O)[C@H]1O,,,rat maternal blood dialysate,"1000 ng/mL, 6 h, room temperature, high QC concentration, added: molnupiravir",,bench-top stability,101 ± 1.82%
O=C(O)CCCOc1ccc(F)cc1-c1cc(-c2ccccc2C(F)(F)F)n(-c2ccccc2)n1,,,"male Crl:CD(SD) rats, salivary glands","intravenous, 25 µg/kg, 14 d",,relative organ weight,0.17 ± 0.02 g%
COc1cccc(Oc2ccccc2NC(=O)CNC(=O)c2cccc3ccccc23)c1,,,"esterase-deficient SCID mice, male, blood","oral, 15 mg/kg/day, 14 days, toxicity study",,mean corpuscular hemoglobin concentration,31.1 g/dL and 31.7 g/dL and 32.3 g/dL
CC[C@H](C)[C@@H]1NC(=O)[C@@H]2CCCN2C(=O)[C@H](CC(C)C)NC(=O)[C@H](CC(C)C)NC(=O)CNC(=O)[C@@H](NC(=O)[C@@H](NC(=O)[C@H](CC(=O)O)NC(=O)CNC(=O)[C@@H](NC(=O)[C@H](C)NC(=O)CNC(=O)[C@H](CCCCN)NC(=O)[C@H](CC(C)C)NC(=O)[C@H](CC(C)C)NC(=O)[C@H](CCCCN)NC(=O)CNC(=O)[C@@H](NC(=O)[C@@H](N)CC(C)C)C(C)C)C(C)C)C(C)C)CSSC[C@@H](C(=O)O)NC1=O,,"RNA-seq, item: Mapkapk5","mouse, traumatic brain injury model, frontal cortex and hippocampus",dose not given,relative to: TBI alone,log2 fold change,-1.23
COc1ncccc1-c1cnn2ccc(N3CCN(C(=O)OC(C)C)CC3)nc12,,,"mouse, SNL model, plasma","oral, 10 mg/kg, 30 min",,free drug concentration,79 nM

# A few entries again:
SMILES,target or system,assay,test system,setting,how to read,endpoint,result
COc1ccc2nc3cc(Cl)ccc3c(Nc3cc(CN4CCCC4)c(O)c(CN4CCCC4)c3)c2n1,,,"mouse, blood","intraperitoneal, 57 mg/kg",,haemoglobin,136 g/L
C[C@]12CC[C@@H]3c4ccc(O)cc4CC[C@H]3[C@@H]1CCC2=O,,ultrafiltration,cow milk whey,20 nM nominal in whole milk,,final permeate concentration,0.3 nM
CCc1cc2c(cc1CC)CC(NC[C@H](O)c1ccc(O)c3[nH]c(=O)ccc13)C2,,,human,oral,,absorption rate constant,1 h⁻¹
